Published values gathered from unrelated publications.
Values joined by “and” are separate records of one study, mostly repeats; a detail may differ. ± marks the error that the study gave.

CC[C@H](C)[C@H](NC(=O)[C@H](C)NC(=O)CNC(=O)[C@H](Cc1ccccc1)NC(=O)[C@H](CC(N)=O)NC(=O)[C@H](CC(N)=O)NC(=O)[C@H](CO)NC(=O)[C@H](CO)NC(=O)[C@H](Cc1c[nH]cn1)NC(=O)[C@@H](NC(=O)[C@H](CC(C)C)NC(=O)[C@H](Cc1ccccc1)NC(=O)[C@H](CC(N)=O)NC(=O)[C@H](C)NC(=O)[C@H](CC(C)C)NC(=O)[C@H](CCCNC(=N)N)NC(=O)[C@H](CCC(N)=O)NC(=O)[C@@H](NC(=O)[C@H](C)NC(=O)[C@@H]1CSSC[C@H](NC(=O)[C@@H](N)CCCCN)C(=O)N[C@@H](CC(N)=O)C(=O)N[C@@H]([C@@H](C)O)C(=O)N[C@@H](C)C(=O)N[C@@H]([C@@H](C)O)C(=O)N1)[C@@H](C)O)C(C)C)C(=O)N[C@@H](CC(C)C)C(=O)N[C@@H](CO)C(=O)N[C@@H](CO)C(=O)N[C@H](C(=O)N[C@@H](CC(N)=O)C(=O)N[C@H](C(=O)NCC(=O)N[C@@H](CO)C(=O)N[C@@H](CC(N)=O)C(=O)N[C@H](C(=O)N[C@@H](Cc1ccc(O)cc1)C(N)=O)[C@@H](C)O)C(C)C)[C@@H](C)O gave an internalized fraction of under 10% (RIN-m5F; ELISA; cytosolic and organelle fractions; 24 h).
COc1ccccc1-c1ccncc1C(=O)Nc1nnc(OCc2ccc(Cl)cc2)s1 has a colony survival of 94.1% (HCT-116 BRCA2 wild-type; 8 µM; relative to: untreated).
For O=C(C[Se]C(=O)c1ccccc1)Nc1cccc(C(F)(F)F)c1, the GI50 was 2.58 µM (NCI60 breast subpanel; NCI60 five-dose screen).
CC(C)(C)C(=O)OCOP(=O)(OCOC(=O)C(C)(C)C)C1CCCN(O)C1=O (stereo not drawn) has a Log10TGI of -5.45 log M (NCI/ADR-RES).
The CD235a-positive cells of O=C(O)c1ccc(-c2nc(-c3ccccc3Cl)c3sccn23)cc1 is reported as 85.4% (HEL; flow cytometry; 0.1 mM).
For CC(C)[C@H](NC(=O)[C@H](CCCNC(=N)N)NC(=O)[C@@H]1CCCN1C(=O)[C@@H](NC(=O)[C@H](C)NC(=O)[C@H](Cc1ccc(O)cc1)NC(=O)[C@H](CCC(N)=O)NC(=O)[C@H](CCCCN)NC(=O)[C@H](CCCNC(=N)N)NC(=O)[C@@H]1CCCN1C(=O)[C@H](CCC(=O)O)NC(=O)[C@@H](NC(=O)[C@H](C)N)[C@@H](C)O)[C@@H](C)O)C(=O)N[C@@H](Cc1ccccc1)C(=O)N[C@@H](Cc1c[nH]c2ccccc12)C(=O)N[C@H](C(=O)N[C@@H](CC(=O)O)C(=O)N[C@@H](C)C(=O)N1CCC[C@H]1C(=O)NCC(=O)NCCOCCOCCOCCOCCOCCOCCOCCOCCOCCOCCOCCOCCC(=O)N[C@@H](CS)C(N)=O)[C@@H](C)O, the selectivity ratio was 170 ± 78 (MDA-MB-231 breast cancer; cell binding, phage binding, refers to: output/input phage; 10 min, 37 °C; relative to: control phage).
Cc1c(Cl)cccc1Nc1ccccc1C(=O)[Se]CC(=O)Nc1cccc(C(F)(F)F)c1 has a CC50 of 7.25 µM (NCI60 CNS subpanel; NCI60 five-dose screen).
For O=[N+]([O-])c1ccc(-n2nc(-c3ccccc3)cc2-c2ccc(F)cc2)c([N+](=O)[O-])c1, the ROS reduction was about 27% (Neuro2a; H2DCF-DA flow cytometry; 15 µM, 48 h; relative to: untreated uninfected cells).
The viability of CC(C)C[C@H](NC(=O)[C@H](CCC(=O)O)NC(=O)[C@@H](N)Cc1ccccc1)C(=O)N[C@@H](CCC(=O)O)C(=O)N[C@@H](CCCNC(=N)N)C(=O)N[C@@H](CCCNC(=N)N)C(=O)N[C@@H](Cc1ccccc1)C(=O)N[C@@H](CCCCN)C(=O)N[C@@H](CCC(N)=O)C(=O)N[C@@H](CCC(N)=O)C(=O)O is reported as 105% and 95.3% (HCT-116; CCK-8; 20 µM; relative to: vehicle).

A few entries again:
Cc1c(Cl)cccc1Nc1ccccc1C(=O)[Se]CC(=O)Nc1cccc(C(F)(F)F)c1 has a CC50 of 7.25 µM (NCI60 CNS subpanel; NCI60 five-dose screen).
